Measured values pooled from the literature.
Each line is one published result; not all experiments were run side by side. “And” joins repeats or separate records; there may be more than shown. ± gives the spread as reported.

| SMILES | assay | system | conditions | how to read | quantity | value |
| --- | --- | --- | --- | --- | --- | --- |
| CC(=O)N1CC(C(=O)Nc2ccc(C3CCCCC3)cc2)C1 | hepatocyte stability | cryopreserved mouse hepatocytes | 1 µM |  | hepatic clearance | 59 mL/min/kg |
| COc1ccnc(C(=O)NC(CO)C(=O)O)c1O (racemic) | soil adsorption | tested soils | geometric mean |  | KFoc | 315 mL/g |
| CC[C@H](C)[C@@H]1NC(=O)[C@@](C)(NC(=O)[C@H](CCCNC(=N)N)NC(=O)[C@H](CC(C)C)NC(=O)[C@@H](NC(=O)[C@H](CCC(N)=O)NC(=O)[C@H](CC(C)C)NC(C)=O)[C@@H](C)O)CCCC=CCCC[C@@](C)(C(=O)N[C@@H](CC(C)C)C(=O)N[C@@H](Cc2ccc3ccccc3c2)C(N)=O)NC(=O)[C@H](CCCNC(=N)N)NC(=O)[C@H](CCC(N)=O)NC1=O |  | BALB/c mouse, plasma | iv, 5 mg/kg, 36 h |  | clearance | 0.783 mL/min/kg |
| COc1ccc2nccc(N3CCc4c(cc(Cn5ccnc5)cc4-c4cn(C)nc4C(F)(F)F)C3=O)c2c1 |  | CD-1 mouse, male, plasma | oral, 10 mg/kg |  | AUC extrapolated | 0.8% |
| COc1ncc(-c2nc3c(n2C(C)C)[C@H](c2ccc(Cl)cc2)N(c2cc(Cl)cn(C)c2=O)C3=O)c(OC)n1 |  | human patients, plasma | oral, 150 mg |  | median Tmax | 2 h |
| c1ncc(-c2ccc(C3CCCCC3)cc2)cn1 | liver microsome stability | human liver microsomes | 1 µM, without NADPH |  | hepatic clearance | 14 mL/min/kg |
| O=C(O)CCC(=O)O.[2H]C([2H])([2H])Oc1cc(C)c2[nH]ccc2c1CN1CC[C@@H](C2CC2)C[C@H]1c1ccc(C(=O)O)cc1 |  | healthy Chinese subjects | 400 mg, single ascending dose |  | TEAE elevated blood triglycerides | 50% |
| Cc1nc(-c2ccc(OCC(C)C)c(C#N)c2)sc1C(=O)O |  | healthy Chinese subjects | oral, 40 mg, fed |  | subjects with neutrophil count decreased | 5% |
| C=CC(=O)NC1CCN(c2ncc3ncnc(Nc4ccc(Oc5ccc6c(c5)ncn6C)c(C)c4)c3n2)CC1 | item: total adverse events | human male | oral, dose not given, CTCAE on-treatment AEs |  | adverse events incidence | 19% |
| CN[C@H](CC(C)C)C(=O)N[C@H]1C(=O)N[C@@H](CC(N)=O)C(=O)N[C@H]2C(=O)N[C@H]3C(=O)N[C@H](C(=O)N[C@H](C(=O)O)c4cc(O)cc(O)c4-c4cc3ccc4O)[C@H](O)c3ccc(c(Cl)c3)Oc3cc2cc(c3O[C@@H]2O[C@H](CO)[C@@H](O)[C@H](O)[C@H]2O[C@H]2C[C@](C)(N)[C@H](O)[C@H](C)O2)Oc2ccc(cc2Cl)[C@H]1O |  | guinea pig, serum | local, 10 mg/mL, poloxamer 407 hydrogel |  | serum concentration | not detected |
| N#Cc1ccc2c(c1)[C@H]1CCCN(C(=O)c3ccc4[nH]cnc4c3)[C@H]1C2 |  | human | 80 mg, day 7 |  | mean ACTH level | 7.5 pmol/L |
| N[C@@H]1c2ccccc2OC12CCN(c1cnc3c(N4CCCc5ncccc54)n[nH]c3n1)CC2 |  | advanced metastatic solid tumour patients, plasma | oral, 75 mg once daily, cycle 1 day 15, geometric mean |  | AUC(0-tau) | 12200 ng·h/mL |
| C=C1C[C@@H]2[C@H](CC[C@]3(C)C(=O)CC[C@@H]23)[C@@]2(C)C=CC(=O)C=C12 |  | postmenopausal women, serum | oral, 25 mg daily, 1 year, mean of detectable specimens |  | serum concentration | 25 nM |
| Cl.[2H]C([2H])([2H])CC(=O)c1cnc(NC(=O)C2CC2)cc1Nc1cccc(-c2ncn(C([2H])([2H])[2H])n2)c1OC |  | human, fed, multiple dose | oral, 30 mg twice daily, tablet, day 1, median |  | Tmax | 2.09 h |
| CNCc1ccc(-c2[nH]c3cc(F)cc4c3c2CCNC4=O)cc1 |  | human patients | oral, 480 mg twice daily, all grades |  | pulmonary embolism incidence | 0% |
| CSCC[C@H](N)C(=O)N[C@H](CC(C)C)C(=O)N[C@@H](CCCNC(=N)N)C(=O)N[C@@H](Cc1c[nH]c2ccccc12)C(=O)N[C@@H](CO)C(=O)N[C@@H](CCCNC(=N)N)C(=O)N[C@@H](CCCCN)C(=O)N[C@@H](CC(C)C)C(=O)N1CCC[C@H]1C(=O)N[C@@H](CS)C(=O)N[C@H](C(=O)N[C@@H](CO)C(N)=O)C(C)C | 12G5 competition, SUP-T1 cells | human plasma | concentration not given, 2 h |  | remaining activity | 71 ± 2% |
| CN1CCN(C(=O)c2ccc([C@H]3[C@@H](F)[C@@H](F)C[C@@H](F)[C@H]3F)cc2)CC1=O | hepatocyte stability | cryopreserved human hepatocytes | 1 µM |  | hepatic clearance | 6.2 mL/min/kg |
| C[C@]12CC[C@@H]3c4ccc(O)cc4CC[C@H]3[C@@H]1CCC2=O |  | whole cow milk | 200 nM nominal |  | dose fraction in milk fat | 72.9% |
| C=CCn1c(=O)c2cnc(Nc3ccc(N4CCN(C)CC4)cc3)nc2n1-c1cccc(C(C)(C)O)n1 |  | human patients | oral, 150 mg twice daily, day 17, cycle 1, added: durvalumab 1500 mg iv |  | AUC(0-10 h) | 5.02 µM·h |
| COc1cc2nccc(Oc3ccc(NC(=O)c4cc5c(n(-c6ccccc6)c4=O)CCCC5=O)nc3)c2cc1OC |  | relapsed or refractory AML | oral, all dose levels |  | grade ≥3 Hyperglycaemia patients | 10% |
| O=C(COc1ccc(Cl)cc1)NC12CC(c3nnc([C@H]4C[C@@H](OC(F)(F)F)C4)o3)(C1)C2 |  | human both sexes | oral, 100 mg once daily, 14 days |  | participants with headache | 42.9% |
| O=C(CC1CCOCC1)Nc1ccc(C2CCCCC2)cc1 |  | human liver microsomes | 1 µM, without NADPH |  | hepatic clearance | 3.9 mL/min/kg |
| C[C@@H](Nc1cc(F)cc(F)c1)c1cc(C(=O)N(C)C)cc2c(=O)cc(N3CCOCC3)oc12 | item: Rash | advanced solid tumour patients | oral, dose not given, dose finding |  | related serious adverse events | 0% |

| SMILES | assay | system | conditions | how to read | quantity | value |
| --- | --- | --- | --- | --- | --- | --- |
| O=C(NCCc1cccnc1)c1ccc([C@H]2[C@@H](F)[C@@H](F)C[C@@H](F)[C@H]2F)cc1 | hepatocyte stability | cryopreserved rat hepatocytes | 1 µM |  | hepatic clearance | 43 mL/min/kg |
| Cc1ccc([C@@H]2O[C@H](CO)[C@@H](O)[C@H](O)[C@H]2O)cc1Cc1ccc(-c2ccc(F)cc2)s1 |  | Japanese type 2 diabetes patients | 400 mg, day 3, 24 h urine collection | baseline: baseline | urinary magnesium excretion change | -10.5 mg |
| Cc1c(C(=O)O)ccc2c3n(nc12)[C@@H]1[C@H](C3)N(CC2CC2)[C@@]2(C(=O)Nc3cc(Cl)ccc32)[C@H]1c1cccc(Cl)c1F |  | female BALB/c nude mice, SJSA-1 xenograft, plasma | oral, 1 mg/kg twice daily, 9 h |  | plasma concentration | 1330 nM |
| CC(C)C[C@@H]1NC(=O)[C@H](C)NC(=O)[C@H](Cc2ccccc2)NCC2=CC=C(CN(C)C1=O)O2 | PAMPA | 2% lecithin in dodecane | 100 µM, 17 h, pH 6.4, 37 °C |  | -log Pe | 5.71 + 0.03 |
| CN(C(=O)n1cnc(-c2ccc[n+]([O-])c2)c1)[C@H]1CC[C@H](O)CC1 |  | rat, hippocampus | oral, 10 mg/kg daily for 5 days, 24 h |  | tissue concentration | 13.3 ± 0.2 ng/g |
| C[C@@H](N)C1CCN(S(=O)(=O)c2cccc3cnccc23)CC1 |  | healthy volunteers | 25 mg, fasted |  | participants with nausea | 0% |
| O=C(Cn1ccnc1)Nc1ccc([C@H]2[C@@H](F)[C@@H](F)C[C@@H](F)[C@H]2F)cc1 |  | cryopreserved mouse hepatocytes | 1 µM |  | hepatic clearance | 21 mL/min/kg |
| Nc1nc2c(nc([N+](=O)[O-])n2[C@@H]2O[C@H](CO)[C@@H](O)[C@H]2O)c(=O)[nH]1 | depurination, RP-HPLC | citrate-phosphate buffer 0.5 mM | 145 min, pH 5, 37 °C |  | nucleoside remaining fraction | 0.838 |
| CC(C)(C(=O)N1CCOc2c(C#N)cncc2C1)C(F)F | item: gastrointestinal disorders | human | oral, 10 mg, CSF pharmacokinetic cohort |  | subjects with adverse event | 16.7% |
| NC1(C(=O)N[C@@H](CCO)c2ccc(Cl)cc2)CCN(c2nc[nH]c3nccc2-3)CC1 |  | metastatic CRPC patients | dose not given, any grade, treatment-related, all doses, added: enzalutamide 160 mg daily |  | incidence of Anaemia | 6.7% |
| CN(Cc1cccnc1)C(=O)c1ccc(C2CCCCC2)cc1 | liver microsome stability | human liver microsomes | 1 µM, without NADPH |  | hepatic clearance | 3.9 mL/min/kg |
| CCCOc1ccc(NC(=O)CN2CCN(C)CC2)cc1-c1nc(CC)c(CC)c(=O)[nH]1 |  | healthy Chinese men | 10 mg, supine or semi-supine, added: alcohol 0.5 g/kg | baseline: baseline | maximal decrease in systolic BP | -11.3 ± 7.45 mmHg |
| Cc1cc(C)c(CNC(=O)c2cc(Cl)c3c(c2C)O[C@@](C)([C@H]2CC[C@H](N(C)C)CC2)O3)c(=O)[nH]1 | CTCAE v4.0 | human, relapsed/refractory NHL | oral, 200 mg once daily, onset after cycle 1 day 1 |  | patients with serious TEAEs | 29.2% |
| COc1ccc([C@@H](O)c2cc(-c3ncnc4cc(N5CCOCC5)ccc34)c(F)cc2Cl)nn1 |  | locally advanced rectal cancer | all dose levels overall, added: capecitabine and radiotherapy |  | drug-related lymphocyte count decrease | 32% |
| CCO[C@H]1CCN(Cc2c(OC)cc(C)c3[nH]ccc23)[C@H](c2ccc(C(=O)O)cc2)C1 |  | human moderate hepatic impairment, plasma | oral, 200 mg single dose, geometric mean |  | total AUC(0-t) | 52900 ng·h/mL |
| O=C(Nc1nc2cccc(-c3ccc(CN4CCS(=O)(=O)CC4)cc3)n2n1)C1CC1 | item: pyrexia | rheumatoid arthritis patients | oral, 300 mg once daily, 4 weeks, any relatedness |  | treatment-emergent adverse events | 5% |
| C=CC(=O)NC1CCN(c2ncc3ncnc(Nc4ccc(Oc5ccc6c(c5)ncn6C)c(C)c4)c3n2)CC1 | item: total radioactivity | healthy male human, whole blood and plasma | oral, 60 mg, 24 h, geometric mean |  | blood-to-plasma ratio | 1.03 |
| CCN1/C(=C/C(C)=O)Sc2ccc(F)cc21 |  | cynomolgus monkey | oral, 10 mg/kg, 4 h post-dose |  | diastolic blood pressure | 81 ± 5 mmHg |
| CN1C(=O)[C@@H](NC(=O)c2nnc(Cc3ccccc3)[nH]2)COc2cccnc21 | phase I multiple ascending dose | human, male and female | oral, 200 mg, 14 days |  | participants with any AE of special interest | 12.5% |
| CCN1CCN(Cc2ccc(NC(=O)c3ccc(C)c(NC(=O)c4cncc(-c5cccs5)c4)c3)cc2C(F)(F)F)CC1 | LC-MS/MS | C57BL/6 mouse, plasma | intraperitoneal, 15 mg/kg single dose, 6 h |  | plasma concentration | 80 ng/mL and 81 ng/mL and 44 ng/mL |
| CC(C)Cn1cnc2c(N)nc3ccccc3c21 |  | C57BL/6J mice, female, solvent-treated, liver microsomes | 1 µM, 45 min |  | remaining compound | ~10% |
| O=C([O-])CN1CCN(CC(=O)[O-])CCN([C@H](CO)[C@H](O)CO)CCN(CC(=O)[O-])CC1.[Gd+3] (racemic) | ICP-MS | rat, femur bone marrow | intravenous, 0.6 mmol Gd/kg, 1 week |  | Gd concentration | 2.3 nmol/g |

Excerpt of the above:
| SMILES | assay | system | conditions | how to read | quantity | value |
| --- | --- | --- | --- | --- | --- | --- |
| O=C(O)CCC(=O)O.[2H]C([2H])([2H])Oc1cc(C)c2[nH]ccc2c1CN1CC[C@@H](C2CC2)C[C@H]1c1ccc(C(=O)O)cc1 |  | healthy Chinese subjects | 400 mg, single ascending dose |  | TEAE elevated blood triglycerides | 50% |
| Cc1nc(-c2ccc(OCC(C)C)c(C#N)c2)sc1C(=O)O |  | healthy Chinese subjects | oral, 40 mg, fed |  | subjects with neutrophil count decreased | 5% |
| C=CC(=O)NC1CCN(c2ncc3ncnc(Nc4ccc(Oc5ccc6c(c5)ncn6C)c(C)c4)c3n2)CC1 | item: total adverse events | human male | oral, dose not given, CTCAE on-treatment AEs |  | adverse events incidence | 19% |
| CN[C@H](CC(C)C)C(=O)N[C@H]1C(=O)N[C@@H](CC(N)=O)C(=O)N[C@H]2C(=O)N[C@H]3C(=O)N[C@H](C(=O)N[C@H](C(=O)O)c4cc(O)cc(O)c4-c4cc3ccc4O)[C@H](O)c3ccc(c(Cl)c3)Oc3cc2cc(c3O[C@@H]2O[C@H](CO)[C@@H](O)[C@H](O)[C@H]2O[C@H]2C[C@](C)(N)[C@H](O)[C@H](C)O2)Oc2ccc(cc2Cl)[C@H]1O |  | guinea pig, serum | local, 10 mg/mL, poloxamer 407 hydrogel |  | serum concentration | not detected |
| N#Cc1ccc2c(c1)[C@H]1CCCN(C(=O)c3ccc4[nH]cnc4c3)[C@H]1C2 |  | human | 80 mg, day 7 |  | mean ACTH level | 7.5 pmol/L |
